Assay results pooled from the literature.
Protocols differ between the studies behind these lines.
T1: RNA aptamer; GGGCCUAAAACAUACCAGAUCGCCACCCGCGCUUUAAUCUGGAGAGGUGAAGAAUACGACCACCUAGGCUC
T2: RNA aptamer, 2'-F pyrimidines; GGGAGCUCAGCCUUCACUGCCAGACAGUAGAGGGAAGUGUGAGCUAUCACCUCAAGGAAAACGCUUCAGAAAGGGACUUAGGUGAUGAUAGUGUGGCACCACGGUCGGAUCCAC
T3: RNA aptamer; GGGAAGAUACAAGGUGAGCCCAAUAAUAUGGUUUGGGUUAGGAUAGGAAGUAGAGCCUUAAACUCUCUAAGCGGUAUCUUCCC
T4: RNA aptamer truncated FMN aptamer; GGUACUUCGGGAAG
T5: RNA aptamer, 2'-F pyrimidines; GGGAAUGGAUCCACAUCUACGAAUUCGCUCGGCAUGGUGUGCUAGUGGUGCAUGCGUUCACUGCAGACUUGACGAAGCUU
T6: RNA aptamer A13U; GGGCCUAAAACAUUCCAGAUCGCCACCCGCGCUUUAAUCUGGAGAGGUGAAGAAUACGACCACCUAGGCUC
T7: RNA aptamer GAA^A junction to GAG^A; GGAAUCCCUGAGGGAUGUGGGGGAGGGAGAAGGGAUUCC
T8: RNA aptamer; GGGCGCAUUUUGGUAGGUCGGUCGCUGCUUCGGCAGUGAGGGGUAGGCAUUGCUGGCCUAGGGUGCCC
T9: RNA aptamer A9G; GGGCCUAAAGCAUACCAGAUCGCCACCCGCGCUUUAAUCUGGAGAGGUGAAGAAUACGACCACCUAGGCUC
T10: RNA aptamer; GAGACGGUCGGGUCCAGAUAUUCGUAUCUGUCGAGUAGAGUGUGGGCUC
T11: RNA aptamer; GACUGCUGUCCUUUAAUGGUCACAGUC

| SMILES | target | test | conditions | quantity | result |
| --- | --- | --- | --- | --- | --- |
| CN(C)[C@@H]1C(=O)C(C(N)=O)=C(O)[C@@]2(O)C(=O)C3=C(O)c4c(O)cccc4C[C@H]3C[C@@H]12 | T1, RNA aptamer | fluorescence titration | pH 7.5, 25 °C, MgCl2 10 mM | Kd | 22.2 nM |
| CNC1C(OC2OC(CO)C(N)C(O)C2O)OC2CC(N)C(OC3C(N)CC(NC(=O)CCOCCOCCOCCOCCOCCOCCOCCOCCOCCOCCOCCOCCNC(=O)CCCC[C@@H]4SC[C@@H]5NC(=O)N[C@@H]54)C(O)C3O)OC2C1O (stereo partly drawn) | T2, RNA aptamer, 2'-F pyrimidines | SPR | apparent | Kd | 3320 nM |
| CC1=N/C(=C\c2cc(Br)c(OC(=O)c3ccccc3SSc3ccccn3)c(Br)c2)C(=O)N1C | T3, RNA aptamer | competition with tracer, competitor, fluorescence quenching | – | binding | binds weakly |
| Cc1cc2nc3c(=O)[nH]c(=O)nc-3n(C[C@H](O)[C@H](O)[C@H](O)CO)c2cc1C | T4, RNA aptamer truncated FMN aptamer | fluorescence quenching | – | Kd | 12500 nM |
| CN[C@@H]1[C@H](O[C@H]2[C@H](O[C@H]3[C@H](O)[C@@H](O)[C@H](N=C(N)N)[C@@H](O)[C@@H]3N=C(N)N)O[C@@H](C)[C@]2(O)C=NNC(=O)CCOCCOCCOCCOCCNC(=O)CCCC[C@@H]2SC[C@@H]3NC(=O)N[C@@H]32)O[C@@H](CO)[C@H](O)[C@H]1O | T5, RNA aptamer, 2'-F pyrimidines | SPR | apparent | Kd | 74.1 nM |
| CN(C)[C@@H]1C(=O)C(C(N)=O)=C(O)[C@@]2(O)C(=O)C3=C(O)c4c(O)cccc4[C@@](C)(O)[C@H]3[C@H](O)[C@@H]12 | T6, RNA aptamer A13U | fluorescence titration | pH 7.5, 25 °C, MgCl2 10 mM | Kd | 532 nM |
| CN1C=C/C(=C/C=C/c2sc3ccccc3[n+]2CC(=O)NCCOCCOCCOCCNC(=O)CCCC[C@@H]2SC[C@@H]3NC(=O)N[C@@H]32)c2ccccc21 | T7, RNA aptamer GAA^A junction to GAG^A | fluorescence titration | – | binding | binds weakly |
| Nc1nc2c(ncn2[C@@H]2O[C@H](COP(=O)(O)OP(=O)(O)OP(=O)(O)O)[C@@H](O)[C@H]2O)c(=O)[nH]1 | T8, RNA aptamer | ITC | pH 6.5, 20 °C, NaCl 50 mM | binding | binds weakly |
| CN(C)C1C(O)=C(C#N)C(=O)C2(O)C(O)=C3C(=O)c4c(O)cccc4C(C)(O)C3CC12 (stereo not drawn) | T9, RNA aptamer A9G | fluorescence titration | pH 7.5, 25 °C, MgCl2 10 mM | Kd | 2640 nM |
| CC1=N/C(=C\c2ccc(OCc3ccc(B(O)O)cc3)c(F)c2)C(=O)N1C | T10, RNA aptamer | competition with tracer, competitor, fluorescence quenching | – | binding | binds weakly |
| CN(C)[C@@H]1C(=O)C(C(N)=O)=C(O)[C@@]2(O)C(=O)C3=C(O)c4c(O)cccc4[C@@](C)(O)[C@H]3C[C@@H]12 | T6, RNA aptamer A13U | ITC | pH 7.5, 25 °C, MgCl2 10 mM | Kd | 189 nM |
| NC[C@@H]1O[C@H](O[C@H]2[C@@H](O)[C@H](O[C@@H]3[C@@H](O)[C@H](N)C[C@H](N)[C@H]3O[C@H]3O[C@H](CN)[C@@H](O)[C@H](O)[C@H]3N)O[C@@H]2CO)[C@H](N)[C@@H](O)[C@@H]1O | T11, RNA aptamer | ITC | NaCl 200 mM | binding | binds weakly |

Excerpt of the above:
| SMILES | target | test | conditions | quantity | result |
| --- | --- | --- | --- | --- | --- |
| CN1C=C/C(=C/C=C/c2sc3ccccc3[n+]2CC(=O)NCCOCCOCCOCCNC(=O)CCCC[C@@H]2SC[C@@H]3NC(=O)N[C@@H]32)c2ccccc21 | T7, RNA aptamer GAA^A junction to GAG^A | fluorescence titration | – | binding | binds weakly |
